Published values collected from several papers.
Each line is one published result; not all experiments were run side by side. ≈ marks a conversion by molar mass, not a printed value.

| SMILES | organism | read-out | method | strain | time | notes | MIC |
| --- | --- | --- | --- | --- | --- | --- | --- |
| C/C(=C\c1ccc(O)cc1)C(=O)Nc1ccc(C(=O)N[C@@H](Cc2c[nH]nn2)C(=O)Nc2ccc(C(=O)Nc3ccc(C(=O)Nc4ccc(C(=O)O)cc4)c(O)c3)cc2)cc1 | Salmonella enterica serovar Kentucky | – | broth microdilution | ciprofloxacin-sensitive | – | – | 0.25 µg/mL (≈ 0.309 µM) |
| CC[C@H]1OC(=O)[C@H](C)[C@@H](OC(=O)c2ccc(N)cc2)[C@H](C)[C@@H](O[C@@H]2O[C@H](C)C[C@H](N(C)C)[C@H]2O)[C@](C)(OC)C[C@@H](C)C(=O)[C@H](C)[C@@H](O)[C@]1(C)O | Cryptococcus neoformans | microbial growth | – | ATCC208821 | – | – | > 32 µg/mL |
| CC1(C)C(NC(=O)C(=NOC2(C(=O)O)CC2)c2csc(N)n2)C(=O)N1OS(=O)(=O)O (centres unmarked) | Klebsiella pneumoniae | – | – | ATCC 1716, ESBL | – | compound alone | 128 µg/mL (≈ 276 µM) |
| CCCCC=CC(=O)NC(Cc1cc(F)cc(F)c1)C(=O)NC1COC(=O)C2CCCN2C(=O)C(C)NC(=O)C(C)N(C)C(=O)C2CCCN2C1=O (centres unmarked) | Streptococcus pneumoniae | microbial growth | broth dilution | – | – | – | 0.024 µg/mL (≈ 0.0328 µM) |
| COc1c(NC(=O)c2ccc(NC(=O)c3ccc(NC(=O)[C@H](Cc4c[nH]nn4)NC(=O)c4ccc(NC(=O)/C(C)=C/c5ccc(O)cc5)cc4)cc3)cc2O)ccc(C(=O)O)c1O | Salmonella enterica serovar Kentucky | – | broth microdilution | ciprofloxacin-resistant | – | – | 1 µg/mL (≈ 1.17 µM) |
| CCCC/C=C/C(=O)N[C@@H](Cc1cc(F)cc(F)c1)C(=O)N[C@H]1COC(=O)[C@@H]2CCCN2C(=O)[C@H](C)NC(=O)[C@@H]2C[C@@H](C(C)C)CCN2C(=O)[C@@H]2CCCN2C1=O | Streptococcus pneumoniae | microbial growth | broth dilution | – | – | – | 0.098 µg/mL (≈ 0.123 µM) |
| C/C(=C\c1ccc(O)cc1)C(=O)Nc1ccc(C(=O)N[C@@H](Cc2c[nH]nn2)C(=O)Nc2ccc(C(=O)Nc3ccc(C(=O)Nc4ccc(C(=O)O)cc4)cc3)cc2)cc1 | Salmonella Typhimurium | – | broth microdilution | TA100 | – | – | 0.031 µg/mL (≈ 0.0391 µM) |
| CC[C@H]1OC(=O)[C@H](C)[C@@H](OC(=O)Cc2ccc(Cl)cc2)[C@H](C)[C@@H](O[C@@H]2O[C@H](C)C[C@H](N(C)C)[C@H]2O)[C@](C)(OC)C[C@@H](C)C(=O)[C@H](C)[C@@H](O)[C@]1(C)O | Cryptococcus neoformans | microbial growth | – | ATCC208821 | – | – | > 32 µg/mL |
| c1ccc2c(c1)nc(CNCC13CC4CC(CC(C4)C1)C3)n2CCOC1CCCCC1 | Streptococcus pneumoniae | – | – | ATCC 49619 | – | – | 4 µg/mL (≈ 9.49 µM) |
| CC[C@H]1OC(=O)[C@H](C)[C@@H](OC(=O)Cc2ccccc2Cl)[C@H](C)[C@@H](O[C@@H]2O[C@H](C)C[C@H](N(C)C)[C@H]2O)[C@](C)(OC)C[C@@H](C)C(=O)[C@H](C)[C@@H](O)[C@]1(C)O | Cryptococcus neoformans | microbial growth | – | ATCC208821 | – | – | > 32 µg/mL |
| COc1cc(Cc2cnc(N)nc2N)cc(OC)c1OC.O=c1[nH]cc(F)c(=O)[nH]1 | Streptococcus pneumoniae | – | broth microdilution | – | 24 h | – | 0.25 µg/mL |
| COc1cc(C(=O)Nc2ccc(C(=O)O)cc2)ccc1NC(=O)c1ccc(NC(=O)[C@H](Cc2c[nH]nn2)NC(=O)c2ccc(NC(=O)/C(C)=C/c3ccc(O)cc3)cc2)cc1 | Salmonella Typhimurium | – | broth microdilution | TA100 | – | – | 2 µg/mL (≈ 2.43 µM) |
| Cc1c(CN(C)C(=O)/C=C/c2cnc3c(c2)CC(N)C(=O)N3)oc2ccccc12 (centres unmarked) | Klebsiella pneumoniae | – | broth microdilution | AR-0560 | – | – | 32 µg/mL (≈ 82 µM) |
| CCCC/C=C/C(=O)N[C@@H](Cc1cc(F)cc(F)c1)C(=O)N[C@H]1COC(=O)[C@@H]2CCCN2C(=O)[C@H](C)NC(=O)[C@@H]2C[C@@H](C)CCN2C(=O)[C@@H]2CCCN2C1=O | Streptococcus pneumoniae | microbial growth | broth dilution | – | – | – | 0.012 µg/mL (≈ 0.0156 µM) |
| CC[C@H]1OC(=O)[C@H](C)C(=O)[C@H](C)[C@@H](O[C@@H]2O[C@H](C)C[C@H](N(C)C)[C@H]2O)[C@](C)(OC)C[C@@H](C)C(=O)[C@H](C)[C@H]2N(CCCCn3cnc(-c4cccnc4)c3)C(=O)O[C@]12C | Cryptococcus neoformans | microbial growth | – | ATCC208821 | – | – | > 32 µg/mL |
| COc1c(NC(=O)c2ccc(NC(=O)[C@H](Cc3c[nH]nn3)NC(=O)c3ccc(NC(=O)/C(C)=C/c4ccc(O)cc4)cc3)cc2)ccc(C(=O)Nc2ccc(C(=O)O)cc2)c1O | Salmonella enterica serovar Kentucky | – | broth microdilution | ciprofloxacin-resistant | – | – | 0.25 µg/mL (≈ 0.298 µM) |
| CC[C@H]1OC(=O)[C@H](C)[C@@H](OC(=O)Cc2ccc([N+](=O)[O-])cc2)[C@H](C)[C@@H](O[C@@H]2O[C@H](C)C[C@H](N(C)C)[C@H]2O)[C@](C)(OC)C[C@@H](C)C(=O)[C@H](C)[C@@H](O)[C@]1(C)O | Cryptococcus neoformans | microbial growth | – | ATCC208821 | – | – | > 32 µg/mL |
| O=[N+]([O-])c1c(Br)c(Cl)c2cccnc2c1O | Streptococcus pneumoniae | microbial growth | broth dilution | ATCC49619 | – | – | 4 µg/mL (≈ 13.2 µM) |
| CC[C@H]1OC(=O)[C@H](C)[C@@H](OC(=O)Cc2ccccc2[N+](=O)[O-])[C@H](C)[C@@H](O[C@@H]2O[C@H](C)C[C@H](N(C)C)[C@H]2O)[C@](C)(OC)C[C@@H](C)C(=O)[C@H](C)[C@@H](O)[C@]1(C)O | Cryptococcus neoformans | microbial growth | – | ATCC208821 | – | – | > 32 µg/mL |
| CCOc1c(NC(=O)c2ccc(NC(=O)[C@H](Cc3c[nH]nn3)NC(=O)c3ccc(NC(=O)/C(C)=C/c4ccc(O)cc4)cc3)cc2)ccc(C(=O)Nc2ccc(C(=O)O)c(O)c2OC)c1O | Salmonella Typhimurium | – | broth microdilution | TA100 | – | – | 0.031 µg/mL (≈ 0.0345 µM) |
| CC[C@H]1OC(=O)[C@H](C)[C@@H](OC(=O)Cc2c(F)cc([N+](=O)[O-])cc2F)[C@H](C)[C@@H](O[C@@H]2O[C@H](C)C[C@H](N(C)C)[C@H]2O)[C@](C)(OC)C[C@@H](C)C(=O)[C@H](C)[C@@H](O)[C@]1(C)O | Cryptococcus neoformans | microbial growth | – | ATCC208821 | – | – | > 32 µg/mL |
| COc1cc(C(=O)O)ccc1NC(=O)c1ccc(NC(=O)c2ccc(NC(=O)[C@H](Cc3c[nH]nn3)NC(=O)c3ccc(NC(=O)/C(C)=C/c4ccc(O)cc4)cc3)cc2)cc1O | Salmonella enterica serovar Kentucky | – | broth microdilution | ciprofloxacin-resistant | – | – | 1 µg/mL (≈ 1.19 µM) |
| CCCC/C=C/C(=O)N[C@@H](Cc1cc(F)cc(F)c1)C(=O)N[C@H]1COC(=O)[C@@H]2CCCN2C(=O)[C@H](C)NC(=O)[C@@H]2CCCCN2C(=O)[C@@H]2CCCN2C1=O | Streptococcus pneumoniae | microbial growth | broth dilution | – | – | – | 0.006 µg/mL (≈ 0.00793 µM) |

For quick reference, copied from above:
| SMILES | organism | read-out | method | strain | time | notes | MIC |
| --- | --- | --- | --- | --- | --- | --- | --- |
| COc1cc(Cc2cnc(N)nc2N)cc(OC)c1OC.O=c1[nH]cc(F)c(=O)[nH]1 | Streptococcus pneumoniae | – | broth microdilution | – | 24 h | – | 0.25 µg/mL |
| COc1cc(C(=O)Nc2ccc(C(=O)O)cc2)ccc1NC(=O)c1ccc(NC(=O)[C@H](Cc2c[nH]nn2)NC(=O)c2ccc(NC(=O)/C(C)=C/c3ccc(O)cc3)cc2)cc1 | Salmonella Typhimurium | – | broth microdilution | TA100 | – | – | 2 µg/mL (≈ 2.43 µM) |
| Cc1c(CN(C)C(=O)/C=C/c2cnc3c(c2)CC(N)C(=O)N3)oc2ccccc12 (centres unmarked) | Klebsiella pneumoniae | – | broth microdilution | AR-0560 | – | – | 32 µg/mL (≈ 82 µM) |
